Measurements collected from several papers.
Target: Tyrosine-protein kinase ITK/TSK (ITK, Homo sapiens, UniProt Q08881)
Sequence (Q08881 1-620, as in one of the studies): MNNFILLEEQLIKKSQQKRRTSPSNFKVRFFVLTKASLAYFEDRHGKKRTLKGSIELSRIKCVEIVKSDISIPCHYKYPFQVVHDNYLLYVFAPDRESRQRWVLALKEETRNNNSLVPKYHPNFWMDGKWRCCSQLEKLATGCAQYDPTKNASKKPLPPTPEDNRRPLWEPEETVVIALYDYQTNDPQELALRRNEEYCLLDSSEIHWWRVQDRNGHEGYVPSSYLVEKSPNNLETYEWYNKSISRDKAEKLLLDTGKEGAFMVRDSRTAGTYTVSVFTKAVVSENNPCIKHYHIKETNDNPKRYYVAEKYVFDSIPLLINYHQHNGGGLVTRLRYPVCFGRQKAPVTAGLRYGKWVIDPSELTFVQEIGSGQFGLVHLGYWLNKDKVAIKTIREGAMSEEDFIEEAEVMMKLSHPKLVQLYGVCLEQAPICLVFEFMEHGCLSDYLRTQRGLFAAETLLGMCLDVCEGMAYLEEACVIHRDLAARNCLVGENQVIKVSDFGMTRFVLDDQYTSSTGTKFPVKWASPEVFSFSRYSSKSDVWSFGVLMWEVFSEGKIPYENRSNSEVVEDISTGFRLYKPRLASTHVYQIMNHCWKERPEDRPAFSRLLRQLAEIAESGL

COc1c(OCCCN2CCOCC2)ccc2c1N=C(NC(=O)c1cnc(N)nc1)N1CCN=C21  remaining activity (kinase activity, inhibitor; 1 µM; relative to: untreated control): 105%
COc1ccc(O)cc1-c1c[nH]c2ncc(-c3cncc(C(=O)N(C)C)c3)cc12  inhibition (binding, competition with immobilised ligand; 0.2 µM): -11.7%
O=C(Cc1ccc(OCc2ccccc2)cc1)NC1(C(=O)O)CCN(C(=O)c2ccc(-c3cccc(Cl)c3)cc2)CC1  activity vs control (enzyme activity, inhibitor; 10 µM): 137%
CN1CC[C@@H](COc2cnc(C#N)cc2-c2ccn3nc(NC(=O)C4CC4)cc3c2)C1  inhibition (enzyme activity, inhibitor; 1 µM): 6%
Cc1cnc2nc1Nc1cccc(c1)COC/C=C/COCc1cc(ccc1OCCN1CCOCC1)N2  percent of control (concentration not given): 90%
C=CC(=O)N1CCCC(n2c(=O)c3ncccc3n(Cc3ccc(Oc4ccccc4)cc3)c2=O)C1 (stereo not shown)  remaining binding (cell-free assay, competition with immobilised ligand; 1 µM): 90%
CCn1cc(C(=O)O)c(=O)c2c(N)c(F)c(NC3CCCCC3)cc21  inhibition (kinase activity; 0.1 µM, added: ATP at Km): 5.4%
COc1ccc(NC(=O)Nc2ccc3c(c2)C(=O)N(C(C)CO)CC(C)C(CN(C)Cc2ccc4c(c2)OCO4)O3)cc1 (stereo not shown)  remaining activity (kinase activity, KinaseProfiler; 0.03 µM, species human; relative to: control): 95%
Cc1cccc(O[C@H]2CCC[C@@H](C(C)CNCc3ccncc3)C2)c1 (relative stereo)  inhibition (kinase activity, kinome panel screening; 10 µM): -1%
CNC(=O)C1CCN(c2cc(C)c(F)cc2NC(=O)c2ccc(-c3cc(O)ccc3C)c(C)c2)CC1  remaining binding (binding, competition with immobilised ligand; 1 µM): 100%
NC(=O)C[C@H]1CCc2sc3ncnc(O[C@H]4CC[C@H](N5CCOCC5)CC4)c3c21  inhibition (enzyme activity, inhibitor; 10 µM): 0%
C=CC(=O)Nc1cccc(-c2cnc3[nH]cc(C(=O)NC(C)(C)C)c3n2)c1  inhibition (enzyme activity, inhibitor; 0.1 µM): 58%
CNC1C[S+]2CC[S+]3CC[S+](C1)[Ru-4]321([N]=C=S)[n]2c3ccc(OC)cc3c3c4c(c5cc(F)c[n+]1c5c32)C(=O)NC4=O (stereo not shown)  remaining binding (KinomeScan; 0.1 µM; relative to: untreated): 100%
COc1cc(Nc2nccc(-c3cnn4nc(OC)ccc34)n2)cc(C(F)(F)F)c1  remaining binding (binding, competition with immobilised ligand; 1 µM): 95%
CN1CCN(c2ccc(Nc3ncc(Cl)c(Nc4ccccc4P(C)(C)=O)n3)cc2Br)CC1  inhibition (enzyme activity, inhibitor; 0.1 µM): 82.4%
COc1cc(-n2cc3cc(F)cc(C(N)=O)c3n2)cc(Cl)c1C1CC(O)(CCO)Cc2ccccc21 (stereo not shown)  inhibition (enzyme activity, inhibitor; 10 µM): 7.97%

For quick reference, copied from above:
COc1ccc(O)cc1-c1c[nH]c2ncc(-c3cncc(C(=O)N(C)C)c3)cc12  inhibition (binding, competition with immobilised ligand; 0.2 µM): -11.7%
O=C(Cc1ccc(OCc2ccccc2)cc1)NC1(C(=O)O)CCN(C(=O)c2ccc(-c3cccc(Cl)c3)cc2)CC1  activity vs control (enzyme activity, inhibitor; 10 µM): 137%
